Results of several laboratories.
Parts stem from different laboratories: compare values within a part only.
Chain of UniProt Q9P2K8 (whole entry, looked up): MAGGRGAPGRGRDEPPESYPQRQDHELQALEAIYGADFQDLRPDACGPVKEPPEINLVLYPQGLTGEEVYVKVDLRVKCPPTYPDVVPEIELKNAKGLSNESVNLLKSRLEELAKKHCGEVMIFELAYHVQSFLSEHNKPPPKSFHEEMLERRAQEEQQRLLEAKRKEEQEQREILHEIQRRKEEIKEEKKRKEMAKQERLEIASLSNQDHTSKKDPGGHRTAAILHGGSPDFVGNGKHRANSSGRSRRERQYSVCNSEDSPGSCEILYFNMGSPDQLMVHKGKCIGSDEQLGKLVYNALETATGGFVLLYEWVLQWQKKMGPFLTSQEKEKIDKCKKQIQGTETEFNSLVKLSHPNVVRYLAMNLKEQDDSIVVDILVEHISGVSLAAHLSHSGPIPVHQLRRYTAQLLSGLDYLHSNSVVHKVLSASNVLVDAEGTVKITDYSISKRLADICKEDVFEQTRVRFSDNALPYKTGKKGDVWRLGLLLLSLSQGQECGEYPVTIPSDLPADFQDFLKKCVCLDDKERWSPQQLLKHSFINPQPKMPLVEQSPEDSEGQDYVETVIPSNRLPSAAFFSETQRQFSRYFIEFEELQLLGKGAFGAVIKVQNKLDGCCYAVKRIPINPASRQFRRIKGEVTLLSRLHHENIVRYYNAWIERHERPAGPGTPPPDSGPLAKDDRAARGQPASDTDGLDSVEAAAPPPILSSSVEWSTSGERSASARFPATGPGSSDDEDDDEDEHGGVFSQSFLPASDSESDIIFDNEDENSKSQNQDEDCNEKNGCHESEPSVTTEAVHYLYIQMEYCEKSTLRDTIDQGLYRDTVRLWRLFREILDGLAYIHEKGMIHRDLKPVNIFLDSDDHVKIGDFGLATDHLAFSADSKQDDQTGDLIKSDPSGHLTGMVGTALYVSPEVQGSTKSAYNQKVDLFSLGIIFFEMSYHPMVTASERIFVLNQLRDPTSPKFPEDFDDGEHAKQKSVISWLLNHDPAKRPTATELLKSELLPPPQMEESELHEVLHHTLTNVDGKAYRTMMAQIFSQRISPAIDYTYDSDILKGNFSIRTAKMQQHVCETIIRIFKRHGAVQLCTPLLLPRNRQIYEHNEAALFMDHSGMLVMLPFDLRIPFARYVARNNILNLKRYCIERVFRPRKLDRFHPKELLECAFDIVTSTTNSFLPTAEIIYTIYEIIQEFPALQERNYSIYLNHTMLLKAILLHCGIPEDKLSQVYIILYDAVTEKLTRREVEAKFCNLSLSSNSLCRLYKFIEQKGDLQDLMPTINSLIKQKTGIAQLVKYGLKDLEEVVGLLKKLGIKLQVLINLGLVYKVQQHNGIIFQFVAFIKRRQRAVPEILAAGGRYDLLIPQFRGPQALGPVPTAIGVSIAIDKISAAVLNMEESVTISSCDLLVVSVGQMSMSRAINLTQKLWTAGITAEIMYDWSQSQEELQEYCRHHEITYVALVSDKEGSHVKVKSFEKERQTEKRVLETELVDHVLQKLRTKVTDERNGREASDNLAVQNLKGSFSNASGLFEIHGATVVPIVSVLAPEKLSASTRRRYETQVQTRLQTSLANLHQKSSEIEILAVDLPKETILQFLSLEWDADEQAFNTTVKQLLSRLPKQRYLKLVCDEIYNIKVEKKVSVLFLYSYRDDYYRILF
Chain of UniProt P49841 (whole entry, looked up): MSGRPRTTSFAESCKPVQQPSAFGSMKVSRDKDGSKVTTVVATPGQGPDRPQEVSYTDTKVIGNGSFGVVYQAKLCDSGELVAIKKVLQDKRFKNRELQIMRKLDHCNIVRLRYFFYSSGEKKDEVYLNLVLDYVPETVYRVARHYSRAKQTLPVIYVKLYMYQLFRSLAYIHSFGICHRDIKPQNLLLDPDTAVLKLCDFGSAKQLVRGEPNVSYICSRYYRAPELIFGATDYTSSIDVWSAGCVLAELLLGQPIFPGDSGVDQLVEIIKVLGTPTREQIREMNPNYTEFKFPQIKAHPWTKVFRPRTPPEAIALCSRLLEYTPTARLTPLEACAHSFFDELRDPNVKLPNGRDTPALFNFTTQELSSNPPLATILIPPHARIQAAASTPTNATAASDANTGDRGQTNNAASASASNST
Chain of UniProt Q86YV6 (whole entry, looked up): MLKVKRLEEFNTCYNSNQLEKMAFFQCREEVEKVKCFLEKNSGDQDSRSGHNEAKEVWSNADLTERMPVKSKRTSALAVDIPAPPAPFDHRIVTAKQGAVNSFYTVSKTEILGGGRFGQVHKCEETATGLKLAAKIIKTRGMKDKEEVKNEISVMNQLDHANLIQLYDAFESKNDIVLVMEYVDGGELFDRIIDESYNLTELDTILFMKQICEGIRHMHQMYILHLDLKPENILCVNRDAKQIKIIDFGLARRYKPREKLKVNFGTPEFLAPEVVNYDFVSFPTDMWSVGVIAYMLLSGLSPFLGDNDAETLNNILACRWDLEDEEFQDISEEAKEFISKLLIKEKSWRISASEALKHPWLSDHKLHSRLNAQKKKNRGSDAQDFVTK
Chain of UniProt Q8TDR2 (whole entry, looked up): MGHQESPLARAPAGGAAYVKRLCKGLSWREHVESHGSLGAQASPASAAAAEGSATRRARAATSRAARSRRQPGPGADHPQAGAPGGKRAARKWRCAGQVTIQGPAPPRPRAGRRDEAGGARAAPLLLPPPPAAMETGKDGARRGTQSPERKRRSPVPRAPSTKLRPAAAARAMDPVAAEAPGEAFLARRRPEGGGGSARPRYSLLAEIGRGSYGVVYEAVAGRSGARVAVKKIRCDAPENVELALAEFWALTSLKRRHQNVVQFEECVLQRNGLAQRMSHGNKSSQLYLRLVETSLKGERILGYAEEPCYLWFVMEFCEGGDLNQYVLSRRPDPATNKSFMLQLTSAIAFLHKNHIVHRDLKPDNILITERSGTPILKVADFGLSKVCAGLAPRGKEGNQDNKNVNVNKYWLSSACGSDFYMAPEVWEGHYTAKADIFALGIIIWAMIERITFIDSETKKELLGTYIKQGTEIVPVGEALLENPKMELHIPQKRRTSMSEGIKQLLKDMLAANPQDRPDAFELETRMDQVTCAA
Chain of UniProt P33981 (whole entry, looked up): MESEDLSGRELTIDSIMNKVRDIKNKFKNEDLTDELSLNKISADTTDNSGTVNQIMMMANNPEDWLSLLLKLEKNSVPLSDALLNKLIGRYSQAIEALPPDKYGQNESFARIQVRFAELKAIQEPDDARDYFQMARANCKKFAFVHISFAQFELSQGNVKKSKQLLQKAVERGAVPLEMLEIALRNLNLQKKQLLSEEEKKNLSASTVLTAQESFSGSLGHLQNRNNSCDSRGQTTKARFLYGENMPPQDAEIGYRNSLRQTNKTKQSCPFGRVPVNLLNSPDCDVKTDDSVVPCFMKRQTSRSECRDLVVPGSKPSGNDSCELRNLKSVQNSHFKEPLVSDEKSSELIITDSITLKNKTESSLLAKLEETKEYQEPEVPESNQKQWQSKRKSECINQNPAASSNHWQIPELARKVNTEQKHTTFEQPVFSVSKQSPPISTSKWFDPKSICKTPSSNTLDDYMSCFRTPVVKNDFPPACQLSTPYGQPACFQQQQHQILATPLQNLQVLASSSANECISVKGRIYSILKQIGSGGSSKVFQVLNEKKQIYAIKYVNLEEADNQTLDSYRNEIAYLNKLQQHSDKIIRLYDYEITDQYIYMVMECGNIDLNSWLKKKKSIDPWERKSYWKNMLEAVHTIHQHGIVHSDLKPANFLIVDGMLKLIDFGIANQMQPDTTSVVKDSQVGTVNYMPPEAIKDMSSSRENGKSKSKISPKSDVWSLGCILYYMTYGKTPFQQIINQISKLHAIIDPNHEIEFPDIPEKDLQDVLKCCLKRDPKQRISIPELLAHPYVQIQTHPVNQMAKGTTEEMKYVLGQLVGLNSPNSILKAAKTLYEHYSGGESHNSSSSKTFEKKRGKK

Sample 1
Target: Diamine acetyltransferase 1 (Homo sapiens, UniProt P21673)
Action: inhibitor
Concentration: 10 µM
Baseline: control
Construct (P21673 1-171): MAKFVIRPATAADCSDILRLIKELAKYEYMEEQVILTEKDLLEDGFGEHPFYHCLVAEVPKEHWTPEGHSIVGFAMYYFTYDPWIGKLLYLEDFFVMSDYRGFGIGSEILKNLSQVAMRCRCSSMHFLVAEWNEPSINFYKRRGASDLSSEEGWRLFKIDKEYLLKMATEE
`O=C(/C=C/c1ccc(O)c(O)c1)O[C@@H]1C[C@](O)(C(=O)O)C[C@@H](OC(=O)/C=C/c2ccc(O)c(O)c2)[C@H]1O` has a remaining activity of 101%.
`OC[C@H]1O[C@@](CO)(OC[C@@]2(OC[C@@]3(OC[C@@]4(OC[C@@]5(OC[C@@]6(O[C@H]7O[C@H](CO)[C@@H](O)[C@H](O)[C@H]7O)O[C@H](CO)[C@@H](O)[C@@H]6O)O[C@H](CO)[C@@H](O)[C@@H]5O)O[C@H](CO)[C@@H](O)[C@@H]4O)O[C@H](CO)[C@@H](O)[C@@H]3O)O[C@H](CO)[C@@H](O)[C@@H]2O)[C@@H](O)[C@@H]1O` gave a remaining activity of 79.5%.
For `c1cc2c(cc1O[C@H]1OC[C@H]3[C@@H]1CO[C@@H]3c1ccc3c(c1)OCO3)OCO2`, the remaining activity was 99.9%.
For `CCCCCC/C=C\CCCCCCCC(=O)O`, the remaining activity was 103%.
The remaining activity of `CCCCCCCCCCCCCC(=O)OC` is reported as 97.4%.
For `CC(C)CC(N)C(=O)O` (racemic), the remaining activity was 101%.
For `O=C(O)c1ccc(O)cc1O`, the remaining activity was 89.5%.
With `CCCCCCCC/C=C\CCCCCCCC(=O)OCC` the remaining activity was 89.7%.

Sample 2
Structure (SMILES): O=C(Nc1cccnn1)N1CC(C/C=C/c2cncc(Oc3ccc(C(F)(F)F)cn3)n2)C1
Effect on: cell-free assay
Method: competition with immobilised ligand
Concentration: 1 µM
It gave 100% for remaining binding (Receptor-type tyrosine-protein kinase FLT3 (FLT3, Homo sapiens, UniProt P36888, D835H)).
The remaining binding was 85% (Epidermal growth factor receptor (EGFR, Homo sapiens, UniProt P00533, del746-750)).
Serine/threonine-protein kinase 36 (STK36, Homo sapiens, UniProt Q9NRP7) — remaining binding: 100%.
It gave 100% for remaining binding (Myosin light chain kinase family member 4 (MYLK4, Homo sapiens, UniProt Q86YV6)).
For Glycogen synthase kinase-3 beta (GSK3B, Homo sapiens, UniProt P49841): remaining binding read 77%.
For Dual specificity protein kinase TTK (TTK, Homo sapiens, UniProt P33981): remaining binding read 100%.

Sample 3
Target: Mitogen-activated protein kinase kinase kinase 7 (MAP3K7, Homo sapiens, UniProt O43318)
Chain of UniProt O43318 (whole entry, looked up): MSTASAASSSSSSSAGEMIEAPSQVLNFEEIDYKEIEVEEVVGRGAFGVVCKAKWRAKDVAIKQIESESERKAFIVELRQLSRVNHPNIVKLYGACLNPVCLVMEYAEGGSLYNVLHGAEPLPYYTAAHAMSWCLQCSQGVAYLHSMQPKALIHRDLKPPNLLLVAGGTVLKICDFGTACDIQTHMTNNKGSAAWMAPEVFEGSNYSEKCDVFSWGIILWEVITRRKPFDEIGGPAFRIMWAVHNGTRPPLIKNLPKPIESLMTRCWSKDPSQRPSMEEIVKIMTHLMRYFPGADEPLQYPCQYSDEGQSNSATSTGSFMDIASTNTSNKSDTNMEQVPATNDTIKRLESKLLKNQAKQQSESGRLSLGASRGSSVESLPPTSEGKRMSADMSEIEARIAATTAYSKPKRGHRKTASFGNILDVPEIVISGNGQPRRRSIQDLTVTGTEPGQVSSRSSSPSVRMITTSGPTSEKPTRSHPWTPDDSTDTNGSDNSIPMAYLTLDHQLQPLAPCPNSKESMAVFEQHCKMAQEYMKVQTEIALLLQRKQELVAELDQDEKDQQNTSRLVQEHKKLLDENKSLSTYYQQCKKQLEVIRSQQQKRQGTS
Effect on: enzyme activity
Action: inhibitor
Concentration: 0.5 µM
Baseline: control
`COc1ccc(CNC(=O)Nc2ncc([N+](=O)[O-])s2)cc1` has a remaining activity of 99.3%.
For `Cn1c2ccccc2c2c3c(c4c5ccccc5n(CCC#N)c4c21)CNC3=O`, the remaining activity was 25.4%.
`CN(C)c1ccc(C=C2C(=O)Nc3ccccc32)cc1` has a remaining activity of 100%.
`O=C(O)c1ccc2c3c1cccc3c(=O)n1c3ccccc3nc21` gave a remaining activity of 74.4%.
`CO[C@H]1C[C@@H]2CC[C@@H](C)[C@@](O)(O2)C(=O)C(=O)N2CCCC[C@H]2C(=O)O[C@H]([C@H](C)C[C@@H]2CC[C@@H](O)[C@H](OC)C2)CC(=O)[C@H](C)/C=C(\C)[C@@H](O)[C@@H](OC)C(=O)[C@H](C)C[C@H](C)/C=C/C=C/C=C/1C` gave a remaining activity of 95.2%.
`C#Cc1cccc(Nc2ncnc3cc(OCCOC)c(OCCOC)cc23)c1` gave a remaining activity of 88.8%.
For `Cc1cccc(-c2[nH]c(C(C)(C)C)nc2-c2ccc3c(c2)OCO3)n1`, the remaining activity was 96.3%.
For `O=C(Nc1cccc(Nc2cc(Nc3cccc(C(F)(F)F)c3)ncn2)c1)C1CC1`, the remaining activity was 99.3%.
For `Cn1sc(=O)n(Cc2ccccc2)c1=O`, the remaining activity was 104%.
For `O=S(=O)(c1cccc2cnccc12)N1CCCNCC1`, the remaining activity was 106%.
`COc1cc2ncnc(Nc3ccc(Oc4ccccc4)cc3)c2cc1OC` gave a remaining activity of 102%.
`O=C(CCCc1ccc(-c2ccccc2F)cc1)Nc1ccc(O)cc1` has a remaining activity of 105%.
The remaining activity of `NCCNc1ncc(C(N)=O)c(Nc2cccc(C(F)(F)F)c2)n1` is reported as 71.2%.
For `CCOC(=O)c1c(C)[nH]c(/C=C2\C(=O)Nc3ccccc32)c1C`, the remaining activity was 85.8%.
For `Cc1ccc(Nc2nccc(N(C)c3ccc4c(C)n(C)nc4c3)n2)cc1S(N)(=O)=O`, the remaining activity was 90.6%.

Sample 4
SMILES: CC(C)S(=O)(=O)c1ccc2nccc(Nc3ccc4sc(C5CCCC5)nc4c3)c2c1.Cl
Effect on: kinase activity
Action: inhibitor
Concentration: 1 µM
The remaining activity was 109% (Serine/threonine-protein kinase WNK3 (WNK3, Homo sapiens, UniProt Q9BYP7)).
Serine/threonine-protein kinase PAK 5 (PAK5, Homo sapiens, UniProt Q9P286) — remaining activity: 107%.
Serine/threonine-protein kinase 35 (STK35, Homo sapiens, UniProt Q8TDR2) — remaining activity: 97%.
RAF proto-oncogene serine/threonine-protein kinase (RAF1, Homo sapiens, UniProt P04049) — remaining activity: 79%.
It gave 92% for remaining activity (Macrophage-stimulating protein receptor (MST1R, Homo sapiens, UniProt Q04912)).
eIF-2-alpha kinase GCN2 (EIF2AK4, Homo sapiens, UniProt Q9P2K8) — remaining activity: 108%.
DNA-dependent protein kinase catalytic subunit (PRKDC, Homo sapiens, UniProt P78527) — remaining activity: 109%.

A few entries again (sample 2):
Serine/threonine-protein kinase 36 (STK36, Homo sapiens, UniProt Q9NRP7) — remaining binding: 100%.
For Glycogen synthase kinase-3 beta (GSK3B, Homo sapiens, UniProt P49841): remaining binding read 77%.
For Dual specificity protein kinase TTK (TTK, Homo sapiens, UniProt P33981): remaining binding read 100%.
The remaining binding was 85% (Epidermal growth factor receptor (EGFR, Homo sapiens, UniProt P00533, del746-750)).
It gave 100% for remaining binding (Myosin light chain kinase family member 4 (MYLK4, Homo sapiens, UniProt Q86YV6)).
